Literature values that unrelated publications cite.
Each line is one published result; not all experiments were run side by side. ± gives the spread as reported.
Chain of UniProt P32322 (whole entry, looked up): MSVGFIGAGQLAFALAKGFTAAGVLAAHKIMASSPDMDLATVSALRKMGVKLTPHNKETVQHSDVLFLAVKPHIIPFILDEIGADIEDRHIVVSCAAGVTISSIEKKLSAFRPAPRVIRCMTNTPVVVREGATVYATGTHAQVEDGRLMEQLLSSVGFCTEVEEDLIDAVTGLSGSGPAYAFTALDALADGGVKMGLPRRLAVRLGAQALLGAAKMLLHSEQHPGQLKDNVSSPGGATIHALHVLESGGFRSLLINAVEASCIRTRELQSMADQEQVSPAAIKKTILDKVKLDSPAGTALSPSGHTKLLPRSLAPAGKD

The LD50 of `CCCN1CCCC[C@H]1C(=O)Nc1c(C)cccc1C` is reported as 56 ± 6 mg/kg (adult rat, sciatic nerve block model).
`C[C@@H]1OC(=O)[C@H]2C[C@H]3CCCC[C@@H]3[C@@H](/C=C/[C@H]3CCC[C@H](C)N3C)[C@@H]12` gave a Kd of 4 nM (muscarinic M2 receptor; antagonist).
The MIC of `CN[C@H](CC(C)C)C(=O)N[C@H]1C(=O)N[C@@H](CC(N)=O)C(=O)N[C@H]2C(=O)N[C@H]3C(=O)N[C@H](C(=O)N[C@H](C(=O)O)c4cc(O)cc(O)c4-c4cc3ccc4O)[C@H](O)c3ccc(c(Cl)c3)Oc3cc2cc(c3O[C@@H]2O[C@H](CO)[C@@H](O)[C@H](O)[C@H]2O[C@H]2C[C@](C)(N)[C@H](O)[C@H](C)O2)Oc2ccc(cc2Cl)[C@H]1O` is reported as over 32 µg/mL (Lactobacillus sp.; HM-102).
`O=CN1CCC[C@H]1C(=O)O` gave a Ki of 100000 nM (Pyrroline-5-carboxylate reductase 1, mitochondrial (Homo sapiens, UniProt P32322); enzyme activity, competitive inhibitor; added: L-P5C variable, NADH 175 µM fixed).
`O=C(CCCCC1SCC2NC(=O)NC21)Nc1cccc([211At])c1` (centres unmarked): “intact compound remaining” 74% (human serum; 12 h).
`OCCN1CCN(CCC=C2c3ccccc3Sc3ccc(C(F)(F)F)cc32)CC1` has a fold change of 1.14 (MCF7; microarray, measured: CALHM2 mRNA (probe 57715_at); concentration not given; baseline: vehicle (DMSO)).
For `C[C@]12CC[C@H](O)C[C@H]1CC[C@@H]1[C@@H]2C[C@@H](O)[C@]2(C)[C@@H](C3=CC(=O)OC3)CC[C@]12O`, the Kd was 30.2 nM (engineered lipocalin; literature value).
For `CC(C)C[C@H](NC(=O)CNC(=O)[C@H](C)NC(=O)[C@H](CC(=O)O)NC(=O)[C@H](CC(=O)O)NC(=O)[C@H](C)NC(=O)[C@@H]1CCCN1C(=O)[C@H](CCCCN)NC(=O)CNC(=O)[C@@H]1CCCN1C(=O)[C@@H]1CCCN1C(=O)[C@@H]1CCCN1C(=O)[C@H](CCC(=O)O)NC(=O)CN)C(=O)N[C@H](C(=O)O)C(C)C`, acute toxicity read “not toxic” (Sprague-Dawley rat; intravenous or intramuscular, dose not given).

Excerpt of the above:
The MIC of `CN[C@H](CC(C)C)C(=O)N[C@H]1C(=O)N[C@@H](CC(N)=O)C(=O)N[C@H]2C(=O)N[C@H]3C(=O)N[C@H](C(=O)N[C@H](C(=O)O)c4cc(O)cc(O)c4-c4cc3ccc4O)[C@H](O)c3ccc(c(Cl)c3)Oc3cc2cc(c3O[C@@H]2O[C@H](CO)[C@@H](O)[C@H](O)[C@H]2O[C@H]2C[C@](C)(N)[C@H](O)[C@H](C)O2)Oc2ccc(cc2Cl)[C@H]1O` is reported as over 32 µg/mL (Lactobacillus sp.; HM-102).
